Experimental data gathered from unrelated publications.
Compare with care: the assays were run in different laboratories. ± gives the spread as reported.

For COc1ncnn2ccc(-c3cnc4nc(C)n(Cc5nnc([C@@H](C)F)o5)c4c3)c12, “incidence of Fatigue” read 14.3% (human patients; oral, dose not given, all-grade adverse drug reaction).
C[C@]1(O)C[C@@](N)(c2ccc(-c3nc4n(c3-c3ccccc3)COc3ccncc3-4)cc2)C1: “patients with Nausea TEAE” 16.7% (human, advanced or metastatic solid tumours; 20 mg once daily, phase I dose escalation).
Under apoptosis, COc1ccc(OC)c(C=CC(=O)C=Cc2cc(OC)ccc2OC)c1 is recorded as “no effect” (acridine orange staining; zebrafish (Danio rerio) larvae; up to 25 µM, larvae at 96 hpf).
For CC(=O)c1c(C)c2cnc(Nc3ccc(C4CCN(CCS(C)(=O)=O)CC4)cn3)nc2n(C2CCCC2)c1=O, the clearance was 2050 mL/min (human patients, plasma; oral, 75 mg twice daily, day 1 single dose, with: fulvestrant).
For COc1ccc(-c2c(-c3ccc(C#N)c(F)c3)nc(N3CCC(N)CC3)n(C)c2=O)cc1F, “treatment-related adverse event incidence” read 0% (measured: Diarrhea; relapsed/refractory marginal zone lymphoma patients; oral, 60 mg, any grade, dose expansion).
For Fc1ccc([C@@H]2CCNC[C@H]2COc2ccc3c(c2)OCO3)cc1, “List of Complaints score” read 0 score (measured: Perspiration; healthy volunteers; oral, dose not given, given -1 h relative to LSD, with: LSD; direction not given).
C[C@@H](NC(=O)N1C(=O)[C@H](Cc2ccnc(N)c2)[C@H]1C(=O)O)C1CCCCC1 — result for “drug-related decreased neutrophil”: 0% (healthy adult Chinese volunteers; continuous intravenous infusion, 1.5 mg/kg/h, 5-day infusion, CTCAE 5.0 grading).
COc1cc2c(Oc3ccc4[nH]c(C)cc4c3F)ccnc2cc1OCC1(N)CC1: “Cholesterol elevation incidence” 0% (paediatric refractory sarcoma patients; 8 mg).
For CO[C@H]1C[C@@H]2CC[C@@H](C)[C@@](O)(O2)C(=O)C(=O)N2CCCC[C@H]2C(=O)O[C@H]([C@H](C)C[C@@H]2CC[C@@H](OC(=O)NCCOCCOCCOCCOCCOCCOCCOCCOCCC(=O)N3CCc4cc(Cn5nc(-c6ccc7oc(N)nc7c6)c6c(N)ncnc65)ccc4C3)[C@H](OC)C2)C[C@@H](O)[C@H](C)/C=C(\C)[C@@H](O)[C@@H](OC)C(=O)[C@H](C)C[C@H](C)/C=C/C=C/C=C/1C, “fatigue TEAE incidence” read 58% (dose-escalation trial; patients with advanced solid tumours; intravenous, all doses weekly, any grade).
CC(C)C(=O)OC[C@H]1O[C@@H](n2ccc(NO)nc2=O)[C@H](O)[C@@H]1O has a freeze-thaw stability of 101 ± 1.29% (rat fetus dialysate; 5 ng/mL, low concentration, three cycles, with: NHC 25 ng/mL).
Clc1ccc(-c2ccccc2)cc1 has a gamma-glutamyltransferase of 0 U/L (Sprague-Dawley rats, female, serum; inhalation, 23 µg/rat, 0 h after exposure).
The emission maximum of CN(C)c1cccc2c(S(=O)(=O)N3CCN(c4ccccc4)CC3)cccc12 is reported as 483 nm (toluene; 20 °C).
Under “dose fraction in permeate”, O=C(O)CNCP(=O)(O)O is recorded as 58.1% (ultrafiltration; cow milk whey; 2000 nM nominal in whole milk).

Excerpt of the above:
Under “dose fraction in permeate”, O=C(O)CNCP(=O)(O)O is recorded as 58.1% (ultrafiltration; cow milk whey; 2000 nM nominal in whole milk).
